Results gathered from unrelated publications.
Lines come from different studies, so protocols differ. Values after ≈ are worked out from the molar mass of the structure shown.

C#Cc1ccc2c(c1)C(c1ccccn1)=NCc1c(-c3cnco3)ncn1-2 — solubility (thermodynamic equilibrium, UV; ethyl acetate; 24 h, 25 °C): 46.7 mg/mL (≈ 133 mM)
C=C(C)[C@@H]1CCC(C)=C[C@H]1c1c(O)cc(CCCCC)cc1O — AEs leading to withdrawal (human; 750 mg, trial 17075, with: fluconazole 400 mg): 0%
CCCCCCCCCCC(=O)O[C@H]1CC[C@H]2[C@@H]3CCC4=CC(=O)CC[C@]4(C)[C@H]3CC[C@]12C — testosterone level (human male serum; 500 ng/mL, NaF 100 mg/mL, baseline testosterone 441 ng/dL): 451 ng/dL
CCCCCn1nc(C(=O)Nc2cccc3ccccc23)c2ccccc21 — hepatic clearance (Sprague-Dawley rat liver microsomes; 1 µM): 51.5 mL/min/kg
COC[C@@H](NC(C)=O)C(=O)NCc1ccccc1 — elimination rate constant (healthy male volunteers, plasma; oral, 100 mg single dose): 0.058 h⁻¹
CN(C)CCOC(C)(c1ccccc1)c1ccccn1 (centres unmarked) — IC50 (Plasmodium falciparum; GB4): 5.01 µM
CCCCCn1cc(C(=O)Nc2cccc3ccccc23)c2ccccc21 — apparent clearance (CL/F) (rat, plasma; intraperitoneal, 3 mg/kg, mean of 4): 18.8 mL/min/kg
Nc1nc(N)c2nc(-c3ccccc3)c(N)nc2n1 — IC50 (Plasmodium falciparum; HB3): 10 µM
O=C1c2c(O)c(=O)ccn2N([C@@H]2c3ccccc3SCc3c2ccc(F)c3F)[C@@H]2COCCN12 — plasma concentration (BALB/c mice, plasma; oral, 15 mg/kg baloxavir marboxil, 0.5 h): 175 ng/mL
OCc1ncc2n1-c1ccc(Cl)cc1C(c1ccccc1F)=NC2 — Tmax (human, plasma; 7.5 mg midazolam, day 26, median, metabolite of midazolam, with: midazolam 7.5 mg alone): 30 min
CCN(CC)C(=O)[C@@H]1C=C2c3cccc4[nH]cc(c34)C[C@H]2N(C)C1 — List of Complaints score (refers to: hypersensitivity to cold; healthy volunteers; dose not given, 0 to 12 h; baseline: placebo, direction not given): 0

For quick reference, copied from above:
C#Cc1ccc2c(c1)C(c1ccccn1)=NCc1c(-c3cnco3)ncn1-2 — solubility (thermodynamic equilibrium, UV; ethyl acetate; 24 h, 25 °C): 46.7 mg/mL (≈ 133 mM)
